Measured values gathered from unrelated publications.
Parts stem from different laboratories: compare values within a part only.

Set 1
Target: Sal-like protein 4, full length isoform B (SALL4, Homo sapiens, UniProt Q9UJQ4-2, residues 1-616)
Method: universal PBM
Molecule type: double-stranded DNA, one strand shown
Sample: in vitro
Tested at: not given
Setting: 8-mer, flanks averaged, mean of replicates
Direction: higher = stronger binding
| Oligonucleotide | E-score |
| --- | --- |
| GAAGAAGA | 0.0634 |
| GCCTACGA | -0.00793 |
| ATTACCAC | 0.171 |
| AGGGAAAA | 0.183 |

Set 2
Target: Histone acetyltransferase KAT6A, winged helix 1, GST fusion (KAT6A, Homo sapiens, UniProt Q92794, residues 1-85)
Method: protein binding microarray
Molecule type: double-stranded DNA, one strand shown
Sample: in vitro
Tested at: not given
Setting: 8-mer, flanks averaged, mean of 2 arrays, mostly near background
Baseline: not given
Direction: higher = stronger binding
Residues (chain): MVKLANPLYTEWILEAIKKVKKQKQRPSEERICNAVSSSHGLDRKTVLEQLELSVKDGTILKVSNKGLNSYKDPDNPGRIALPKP
| Oligonucleotide | E-score |
| --- | --- |
| TGGCACAA | -0.243 |
| AGATTCAT | -0.248 |
| TCTGGAAA | -0.0725 |
| CGTGTTAG | 0.242 |

Set 3
Target: Interferon regulatory factor 3, full length, phosphomimetic (IRF3, Homo sapiens, UniProt Q14653, residues 1-427, S386D/S396D/S398D/S402D/T404D/S405D)
Method: protein-binding microarray
Molecule type: double-stranded DNA, one strand shown
Sample: in vitro
Tested at: 2540 nM top
Setting: 60-bp whole probe
Added: salmon DNA 0.4 mg/ml
Baseline: random background probes
Direction: higher = stronger binding
Shared flanks, not repeated: GCCTAGCAC … GTCTTGATTCGCTTGACGCTGCTG
Target sequence (chain): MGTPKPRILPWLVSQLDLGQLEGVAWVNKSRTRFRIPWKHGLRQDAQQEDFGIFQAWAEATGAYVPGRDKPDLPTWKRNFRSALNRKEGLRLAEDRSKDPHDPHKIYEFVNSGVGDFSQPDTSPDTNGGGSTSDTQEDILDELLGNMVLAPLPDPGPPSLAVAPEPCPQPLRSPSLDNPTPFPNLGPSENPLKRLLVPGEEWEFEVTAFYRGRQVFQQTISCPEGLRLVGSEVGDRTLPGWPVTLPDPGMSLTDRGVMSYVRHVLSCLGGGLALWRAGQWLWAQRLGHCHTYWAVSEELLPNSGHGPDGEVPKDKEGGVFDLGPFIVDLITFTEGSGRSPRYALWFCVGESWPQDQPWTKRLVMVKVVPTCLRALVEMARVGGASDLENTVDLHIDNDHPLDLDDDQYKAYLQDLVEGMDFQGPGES
| Oligonucleotide | fitted relative affinity [z-score] |
| --- | --- |
| GACGGTTTCGGTCTCGGCACGTGCTAG | 8.04 |
| TCATAATTCTCTTTTCAACTGTGCTAG | 1.57 |
| GACGGACTGCTTCTCCTGGCGTGCTAG | -0.273 |
| TTATGTTTCCTTATCCTTTAGTGCTAG | 7.24 |
| GATGGACTGGGGACTGGGGACGTGCTA | -1.05 |

Other studies, line by line
| Molecule | target | test | test system | conditions | how to read | quantity | result |
| --- | --- | --- | --- | --- | --- | --- | --- |
| PhoQ, residues 284 288 289 292 302 303 ALAMYF | PhoP, residues 12 14 15 18 19 SEGLL (Escherichia coli, UniProt P23836) | Sort-seq, refers to: YFP reporter | E. coli | PhoQ-PhoP variant library, added: 10 µM Mg2+ | baseline: high Mg2+ state, higher = stronger signaling | fold induction | 14.8 |

Some of these lines once more (set 2):
| Oligonucleotide | E-score |
| --- | --- |
| TCTGGAAA | -0.0725 |
| CGTGTTAG | 0.242 |
